Published values gathered from unrelated publications.
Lines come from different studies, so protocols differ. ± gives the spread as reported.
Chain of UniProt P51679 (whole entry, looked up): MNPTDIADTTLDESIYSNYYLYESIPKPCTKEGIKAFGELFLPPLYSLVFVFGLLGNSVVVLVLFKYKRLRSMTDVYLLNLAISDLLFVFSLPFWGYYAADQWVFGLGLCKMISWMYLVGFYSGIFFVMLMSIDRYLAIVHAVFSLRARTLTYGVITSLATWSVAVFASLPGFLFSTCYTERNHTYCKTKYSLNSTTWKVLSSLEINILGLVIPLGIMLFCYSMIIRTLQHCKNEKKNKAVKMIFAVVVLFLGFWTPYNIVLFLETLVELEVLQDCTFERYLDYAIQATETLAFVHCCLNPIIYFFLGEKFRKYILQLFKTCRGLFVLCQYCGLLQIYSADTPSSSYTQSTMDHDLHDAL
Chain of UniProt P49589 (whole entry, looked up): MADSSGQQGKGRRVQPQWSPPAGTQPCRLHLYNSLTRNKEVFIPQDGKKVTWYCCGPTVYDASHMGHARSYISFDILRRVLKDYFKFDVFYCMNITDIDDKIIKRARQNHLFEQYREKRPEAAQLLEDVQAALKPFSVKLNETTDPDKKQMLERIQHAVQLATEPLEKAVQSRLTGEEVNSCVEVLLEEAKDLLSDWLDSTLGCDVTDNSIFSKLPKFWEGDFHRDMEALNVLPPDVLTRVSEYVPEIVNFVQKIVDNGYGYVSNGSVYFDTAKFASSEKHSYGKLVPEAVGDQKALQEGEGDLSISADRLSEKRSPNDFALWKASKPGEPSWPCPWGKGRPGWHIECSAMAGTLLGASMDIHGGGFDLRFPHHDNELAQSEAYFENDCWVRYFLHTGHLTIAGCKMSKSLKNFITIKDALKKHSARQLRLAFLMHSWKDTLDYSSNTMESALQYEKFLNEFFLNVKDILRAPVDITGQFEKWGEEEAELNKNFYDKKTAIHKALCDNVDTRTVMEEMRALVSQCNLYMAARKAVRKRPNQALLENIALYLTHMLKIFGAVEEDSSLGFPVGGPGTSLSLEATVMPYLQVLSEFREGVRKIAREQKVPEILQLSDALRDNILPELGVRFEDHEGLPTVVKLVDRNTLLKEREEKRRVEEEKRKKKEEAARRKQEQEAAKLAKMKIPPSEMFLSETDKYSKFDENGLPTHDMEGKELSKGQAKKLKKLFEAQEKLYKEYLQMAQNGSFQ
Chain of UniProt Q02779 (whole entry, looked up): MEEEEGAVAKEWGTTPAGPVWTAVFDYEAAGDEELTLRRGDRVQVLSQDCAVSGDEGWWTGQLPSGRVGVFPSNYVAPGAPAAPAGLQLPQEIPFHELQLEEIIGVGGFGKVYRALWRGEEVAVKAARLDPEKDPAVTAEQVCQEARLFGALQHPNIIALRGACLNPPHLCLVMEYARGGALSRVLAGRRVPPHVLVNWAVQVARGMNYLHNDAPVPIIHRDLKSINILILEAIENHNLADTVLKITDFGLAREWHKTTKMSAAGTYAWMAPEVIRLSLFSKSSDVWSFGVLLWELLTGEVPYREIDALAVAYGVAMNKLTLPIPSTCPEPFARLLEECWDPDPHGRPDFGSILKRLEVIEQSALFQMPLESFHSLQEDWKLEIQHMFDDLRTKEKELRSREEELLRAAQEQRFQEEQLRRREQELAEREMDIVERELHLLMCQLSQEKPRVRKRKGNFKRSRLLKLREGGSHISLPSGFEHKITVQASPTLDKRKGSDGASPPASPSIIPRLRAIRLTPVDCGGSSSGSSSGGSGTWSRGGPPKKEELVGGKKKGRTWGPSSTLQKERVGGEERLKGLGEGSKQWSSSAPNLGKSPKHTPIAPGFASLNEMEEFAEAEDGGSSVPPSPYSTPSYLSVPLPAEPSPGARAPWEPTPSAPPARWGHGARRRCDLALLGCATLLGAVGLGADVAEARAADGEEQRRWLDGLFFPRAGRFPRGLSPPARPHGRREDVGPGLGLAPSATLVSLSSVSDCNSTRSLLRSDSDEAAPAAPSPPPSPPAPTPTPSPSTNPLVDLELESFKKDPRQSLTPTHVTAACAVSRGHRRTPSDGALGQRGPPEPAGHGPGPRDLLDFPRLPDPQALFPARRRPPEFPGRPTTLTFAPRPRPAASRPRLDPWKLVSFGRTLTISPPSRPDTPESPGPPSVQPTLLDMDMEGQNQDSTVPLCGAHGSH

With `CC[C@H](C)[C@H](NC(=O)[C@H](Cc1ccccc1)NC(=O)[C@H](CCC(=O)O)NC(=O)[C@H](CCCNC(=N)N)NC(=O)[C@H](C)NC(=O)[C@H](C)NC(=O)[C@H](CCC(N)=O)NC(=O)[C@H](CCC(=O)O)NC(=O)[C@H](CCC(=O)O)NC(=O)[C@H](CC(C)C)NC(=O)[C@H](Cc1ccc(O)cc1)NC(=O)[C@H](CO)NC(=O)[C@H](CO)NC(=O)[C@@H](NC(=O)[C@H](CC(=O)O)NC(=O)[C@H](CO)NC(=O)[C@@H](NC(=O)[C@H](Cc1ccccc1)NC(=O)[C@@H](NC(=O)CNC(=O)[C@H](CCC(=O)O)NC(=O)[C@H](C)NC(=O)CCc1c[nH]cn1)[C@@H](C)O)[C@@H](C)O)C(C)C)C(=O)N[C@@H](C)C(=O)N[C@@H](Cc1c[nH]c2ccccc12)C(=O)N[C@@H](CC(C)C)C(=O)N[C@H](C(=O)N[C@@H](CCCNC(=N)N)C(=O)NCC(=O)N[C@@H](CCCNC(=N)N)C(=O)N[C@@H](CCCCNC(=O)COCCOCCNC(=O)COCCOCCNC(=O)CC[C@H](NC(=O)CCCCCCCCCCCCCCCCC(=O)O)C(=O)O)C(=O)NCC(=O)NCC(=O)N[C@@H](CO)C(=O)N[C@@H](CCCCNc1c(NCCCCCN(O)C(=O)CCC(=O)NCCCCCN(O)C(=O)CCC(=O)NCCCCCN(O)C(C)=O)c(=O)c1=O)C(=O)O)C(C)C` [zirconium-89 labelled] the tissue uptake was 0.3 %ID/g (rat, blood; sc, 3 nmol/kg, 24 h, ex vivo).
`Oc1c(Cl)cc2c(c1Cl)Oc1cc(Cl)c(Cl)cc1O2`: “dose fraction in permeate” 18.3% (ultrafiltration; cow milk whey; 500 nM nominal in whole milk).
Under “blood urea nitrogen”, `Clc1ccc(-c2ccccc2)cc1` is recorded as 17 ± 2 mg/dL (female Sprague-Dawley rats, serum; inhalation, 23 µg/rat, 1 h after exposure).
`C[C@H]1CN(c2n[nH]c3nc(N[C@H]4CC[C@H](NS(=O)(=O)CCC(F)(F)F)CC4)ncc23)CCO1` gave a remaining binding of 0.96 (Cysteine--tRNA ligase, cytoplasmic (Homo sapiens, UniProt P49589); Kinobeads competition, measured: CARS; 0.032 µM, unit not given; baseline: vehicle).
`CC[C@H](C)[C@@H]1NC(=O)[C@@H]2CCCN2C(=O)[C@H](CC(C)C)NC(=O)[C@H](CC(C)C)NC(=O)CNC(=O)[C@@H](NC(=O)[C@@H](NC(=O)[C@H](CC(=O)O)NC(=O)CNC(=O)[C@@H](NC(=O)[C@H](C)NC(=O)CNC(=O)[C@H](CCCCN)NC(=O)[C@H](CC(C)C)NC(=O)[C@H](CC(C)C)NC(=O)[C@H](CCCCN)NC(=O)CNC(=O)[C@@H](NC(=O)[C@@H](N)CC(C)C)C(C)C)C(C)C)C(C)C)CSSC[C@@H](C(=O)O)NC1=O` — result for “log2 fold change”: -1.02 (RNA-seq, measured: Sesn2; mouse, traumatic brain injury model, frontal cortex and hippocampus; dose not given; baseline: TBI alone).
The inhibition of `COc1ccc(N2C(=O)N(c3c(C)cccc3Cl)Cc3cnc(Nc4ccc(C5CCN(C)CC5)cc4OC)nc32)nc1` is reported as -2% (MAP3K10 (Homo sapiens, UniProt Q02779); kinase activity, inhibitor; 0.5 µM, MLK2).
`CO[C@H]1C[C@@H]2CC[C@@H](C)[C@@](O)(O2)C(=O)C(=O)N2CCCC[C@H]2C(=O)O[C@H]([C@H](C)C[C@@H]2CC[C@@H](OC(=O)NCCOCCOCCOCCOCCOCCOCCOCCOCCC(=O)N3CCc4cc(Cn5nc(-c6ccc7oc(N)nc7c6)c6c(N)ncnc65)ccc4C3)[C@H](OC)C2)C[C@@H](O)[C@H](C)/C=C(\C)[C@@H](O)[C@@H](OC)C(=O)[C@H](C)C[C@H](C)/C=C/C=C/C=C/1C` — result for “AEs leading to discontinuation”: 0% (dose-escalation trial; patients with advanced solid tumours; intravenous, 1.6 mg/3 mg weekly, grade ≥3).
`CN(C)C1(CNC(=O)c2ccc3c(c2)CCN3C(=O)c2ccccc2)CCOCC1` has an AUC(0-last) of 241 ± 40 ng·h/mL (ICR mouse, male, plasma; intraperitoneal, 30 mg/kg).
For `COc1cc2c(Oc3ccc4[nH]c(C)cc4c3F)ccnc2cc1OCC1(N)CC1`, “grade 3 Hematuria” read 6.7% (paediatric recurrent refractory sarcoma; 8 mg/kg).
For `CCCCCCCC(=O)N[C@@H](CCCCN)C(=O)N[C@@H](CCCCN)C(=O)N[C@@H](C)C(=O)N[C@@H](CC(C)C)C(=O)N[C@@H](CCCCN)C(=O)N[C@@H](CC(C)C)C(=O)N[C@@H](C)C(=O)N[C@@H](CCCCN)C(=O)N[C@@H](CCCCN)C(=O)N1CCC[C@H]1C(=O)N[C@@H](CC(C)C)C(=O)N[C@@H](CCCCN)C(=O)N[C@@H](CC(C)C)C(=O)N[C@@H](CC(C)C)C(=O)N[C@@H](CCCCN)C(N)=O`, the AUC(0-last) was 75 ± 15 ng·h/mL (mouse, whole blood; intravenous bolus, 1 mg/kg).
Under “incidence of drug-related AEs”, `C[C@@H](NC(=O)N1C(=O)[C@H](Cc2ccnc(N)c2)[C@H]1C(=O)O)C1CCCCC1` is recorded as 0% (healthy adult Chinese volunteers; continuous intravenous infusion, 1.0 mg/kg/h, 5-day infusion, CTCAE 5.0 grading).
For `COc1cc(CCC[P+](c2ccccc2)(c2ccccc2)c2ccccc2)c(OC)c2c1OCO2.[I-]`, the LC50 was greater than -4 log M (HCT-116; SRB).
`COc1cc(Nc2ncc(F)c(Nc3ccc4c(n3)NC(=O)C(C)(C)O4)n2)cc(OC)c1OC` has an IC50 of greater than 10 µM (CCR4 (Homo sapiens, UniProt P51679)).
`CCc1ccc(CC/C=C/c2ccc3c(c2)C(=O)CC3)cc1` has a creatinine of 20.7 µM (Sprague-Dawley rat, male, serum; oral, 120 mg/kg/day, 14 days).
For `O=c1nc(NO)ccn1[C@@H]1O[C@H](CO)[C@@H](O)[C@H]1O`, the freeze-thaw stability was 96.8 ± 3.77% (rat maternal blood dialysate; 1000 ng/mL, high concentration, three cycles, added: molnupiravir 250 ng/mL).
Under “patients with Hyperphosphatemia TEAE”, `C[C@]1(O)C[C@@](N)(c2ccc(-c3nc4n(c3-c3ccccc3)COc3ccncc3-4)cc2)C1` is recorded as 33.3% (human, advanced or metastatic solid tumours; once daily, dose escalation total, any grade).
Under “subjects with drug-related TEAE”, `C[C@]1(CO)Cc2ncn(-c3ccc(C#N)c(Cl)c3)c2C(=O)O1` is recorded as 8.3% (healthy European subjects; dose not given, single dose, all doses).
For `N=C(N)NCCNC(=O)C1(Nc2ccccc2)CCN(Cc2ccccc2)CC1`, “elimination rate constant” read 0.000222 ± 2.78e-05 s⁻¹ (female Sprague-Dawley rats; intravenous, 2.5 mg/kg).
`COc1c(OCCCN2CCOCC2)ccc2c1N=C(NC(=O)c1cnc(N)nc1)N1CCN=C21` — result for “systolic blood pressure”: 121 ± 15.7 mmHg (human, solid tumour expansion cohort; 0.8 mg/kg, day 2, 25 h after infusion start).
